Measured values from different studies.
Parts stem from different laboratories: compare values within a part only.
Chain of UniProt Q16832 (whole entry, looked up): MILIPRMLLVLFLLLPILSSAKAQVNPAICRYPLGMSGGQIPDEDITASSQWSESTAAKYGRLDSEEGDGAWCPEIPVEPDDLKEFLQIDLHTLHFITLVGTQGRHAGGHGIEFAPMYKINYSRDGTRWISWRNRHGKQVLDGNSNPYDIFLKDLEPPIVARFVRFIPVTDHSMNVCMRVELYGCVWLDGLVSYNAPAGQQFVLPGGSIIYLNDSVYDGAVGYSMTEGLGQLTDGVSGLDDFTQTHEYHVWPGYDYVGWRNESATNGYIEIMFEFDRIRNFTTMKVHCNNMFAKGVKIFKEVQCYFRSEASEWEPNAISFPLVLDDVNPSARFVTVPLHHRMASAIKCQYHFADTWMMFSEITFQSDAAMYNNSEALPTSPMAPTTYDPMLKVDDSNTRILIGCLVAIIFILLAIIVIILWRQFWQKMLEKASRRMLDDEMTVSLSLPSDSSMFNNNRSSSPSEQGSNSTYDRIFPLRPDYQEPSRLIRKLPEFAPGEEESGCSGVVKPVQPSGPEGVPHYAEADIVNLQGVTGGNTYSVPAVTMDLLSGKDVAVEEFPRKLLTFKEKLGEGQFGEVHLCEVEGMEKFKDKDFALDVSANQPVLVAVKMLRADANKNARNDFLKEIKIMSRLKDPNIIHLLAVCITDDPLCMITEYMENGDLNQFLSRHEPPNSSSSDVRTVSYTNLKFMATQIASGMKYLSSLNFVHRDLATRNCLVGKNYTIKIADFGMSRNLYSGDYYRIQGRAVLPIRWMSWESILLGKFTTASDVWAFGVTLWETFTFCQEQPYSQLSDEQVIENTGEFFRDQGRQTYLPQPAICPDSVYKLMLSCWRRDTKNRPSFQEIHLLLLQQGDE
Chain of UniProt P11802 (whole entry, looked up): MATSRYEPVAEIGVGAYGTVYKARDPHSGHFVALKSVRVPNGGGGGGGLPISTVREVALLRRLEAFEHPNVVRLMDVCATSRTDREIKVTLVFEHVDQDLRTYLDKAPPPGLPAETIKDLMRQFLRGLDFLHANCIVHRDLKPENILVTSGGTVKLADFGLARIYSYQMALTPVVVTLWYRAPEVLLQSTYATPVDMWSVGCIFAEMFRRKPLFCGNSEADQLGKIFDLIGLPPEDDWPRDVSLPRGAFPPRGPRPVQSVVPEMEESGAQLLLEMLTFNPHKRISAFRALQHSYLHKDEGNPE
Chain of UniProt P07949 (whole entry, unmodified, looked up): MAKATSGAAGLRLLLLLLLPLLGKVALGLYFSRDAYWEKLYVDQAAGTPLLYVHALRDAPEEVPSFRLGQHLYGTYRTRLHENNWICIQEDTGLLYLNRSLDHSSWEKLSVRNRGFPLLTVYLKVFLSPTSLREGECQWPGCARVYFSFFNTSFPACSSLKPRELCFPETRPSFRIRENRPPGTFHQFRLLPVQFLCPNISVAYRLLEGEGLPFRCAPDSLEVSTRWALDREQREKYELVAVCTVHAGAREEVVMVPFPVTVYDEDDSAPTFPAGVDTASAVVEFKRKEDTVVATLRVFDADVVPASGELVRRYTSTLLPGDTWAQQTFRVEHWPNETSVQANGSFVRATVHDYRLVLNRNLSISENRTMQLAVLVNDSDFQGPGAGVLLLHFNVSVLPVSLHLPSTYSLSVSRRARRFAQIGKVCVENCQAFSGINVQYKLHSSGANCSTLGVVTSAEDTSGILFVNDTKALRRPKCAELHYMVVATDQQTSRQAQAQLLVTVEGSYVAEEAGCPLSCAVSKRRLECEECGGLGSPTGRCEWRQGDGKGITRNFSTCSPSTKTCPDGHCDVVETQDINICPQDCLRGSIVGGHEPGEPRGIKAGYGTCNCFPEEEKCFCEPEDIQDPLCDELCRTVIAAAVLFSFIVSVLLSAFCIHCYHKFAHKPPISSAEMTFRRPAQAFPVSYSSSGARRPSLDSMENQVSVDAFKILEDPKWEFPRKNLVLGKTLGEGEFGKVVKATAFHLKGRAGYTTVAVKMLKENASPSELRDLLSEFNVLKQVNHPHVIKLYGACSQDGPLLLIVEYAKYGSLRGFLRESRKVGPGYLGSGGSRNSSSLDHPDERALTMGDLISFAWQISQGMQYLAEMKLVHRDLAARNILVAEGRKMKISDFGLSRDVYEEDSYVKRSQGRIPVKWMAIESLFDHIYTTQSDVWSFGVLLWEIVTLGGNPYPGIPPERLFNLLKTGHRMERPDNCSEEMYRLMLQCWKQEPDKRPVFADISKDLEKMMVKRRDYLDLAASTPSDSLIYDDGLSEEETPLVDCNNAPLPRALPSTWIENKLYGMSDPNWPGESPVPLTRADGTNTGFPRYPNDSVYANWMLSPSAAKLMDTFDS
Chain of UniProt P42684 (whole entry, looked up): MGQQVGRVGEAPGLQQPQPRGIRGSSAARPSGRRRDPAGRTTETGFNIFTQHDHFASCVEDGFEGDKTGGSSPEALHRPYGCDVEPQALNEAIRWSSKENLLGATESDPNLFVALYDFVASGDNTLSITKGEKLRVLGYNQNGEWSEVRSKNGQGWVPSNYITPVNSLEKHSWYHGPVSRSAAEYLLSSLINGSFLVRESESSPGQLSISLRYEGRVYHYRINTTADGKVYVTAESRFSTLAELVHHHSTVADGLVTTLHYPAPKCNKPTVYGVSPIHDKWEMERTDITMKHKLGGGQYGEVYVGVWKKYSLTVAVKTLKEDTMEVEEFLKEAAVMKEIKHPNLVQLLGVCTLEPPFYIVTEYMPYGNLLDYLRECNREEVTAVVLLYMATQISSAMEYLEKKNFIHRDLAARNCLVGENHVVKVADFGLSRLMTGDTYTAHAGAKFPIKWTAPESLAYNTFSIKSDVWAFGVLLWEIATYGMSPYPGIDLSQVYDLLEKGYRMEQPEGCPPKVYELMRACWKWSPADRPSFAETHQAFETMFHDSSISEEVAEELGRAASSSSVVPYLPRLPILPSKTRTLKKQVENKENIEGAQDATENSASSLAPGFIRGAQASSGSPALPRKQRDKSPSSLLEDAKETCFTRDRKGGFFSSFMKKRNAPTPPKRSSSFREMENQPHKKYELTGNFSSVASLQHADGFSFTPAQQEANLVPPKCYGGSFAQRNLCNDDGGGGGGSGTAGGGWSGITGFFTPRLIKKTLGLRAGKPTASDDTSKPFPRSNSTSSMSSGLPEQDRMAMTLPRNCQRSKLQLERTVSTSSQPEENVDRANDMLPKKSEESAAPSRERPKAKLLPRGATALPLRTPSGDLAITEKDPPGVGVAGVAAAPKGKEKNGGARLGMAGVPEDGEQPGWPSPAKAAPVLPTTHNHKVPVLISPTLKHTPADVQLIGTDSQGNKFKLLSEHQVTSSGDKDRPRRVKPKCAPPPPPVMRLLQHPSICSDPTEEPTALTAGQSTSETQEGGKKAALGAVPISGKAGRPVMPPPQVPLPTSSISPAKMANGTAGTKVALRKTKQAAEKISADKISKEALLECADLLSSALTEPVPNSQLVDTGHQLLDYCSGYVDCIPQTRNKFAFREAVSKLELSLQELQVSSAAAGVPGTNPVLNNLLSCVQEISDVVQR
Chain of UniProt Q9Y2H1 (whole entry, looked up): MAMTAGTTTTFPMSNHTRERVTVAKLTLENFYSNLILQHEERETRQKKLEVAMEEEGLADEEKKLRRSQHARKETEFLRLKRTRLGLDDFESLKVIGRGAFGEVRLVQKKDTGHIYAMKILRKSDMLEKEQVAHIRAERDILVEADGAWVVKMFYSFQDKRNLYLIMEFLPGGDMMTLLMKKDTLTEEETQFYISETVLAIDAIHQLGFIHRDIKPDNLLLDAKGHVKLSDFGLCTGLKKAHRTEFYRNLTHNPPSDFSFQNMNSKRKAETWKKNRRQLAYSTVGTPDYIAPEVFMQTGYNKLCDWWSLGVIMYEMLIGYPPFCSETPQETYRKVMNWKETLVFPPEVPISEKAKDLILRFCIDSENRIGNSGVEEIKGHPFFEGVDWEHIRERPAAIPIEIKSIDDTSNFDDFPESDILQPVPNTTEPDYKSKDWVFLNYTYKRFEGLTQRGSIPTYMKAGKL
Chain of UniProt Q14164 (whole entry, looked up): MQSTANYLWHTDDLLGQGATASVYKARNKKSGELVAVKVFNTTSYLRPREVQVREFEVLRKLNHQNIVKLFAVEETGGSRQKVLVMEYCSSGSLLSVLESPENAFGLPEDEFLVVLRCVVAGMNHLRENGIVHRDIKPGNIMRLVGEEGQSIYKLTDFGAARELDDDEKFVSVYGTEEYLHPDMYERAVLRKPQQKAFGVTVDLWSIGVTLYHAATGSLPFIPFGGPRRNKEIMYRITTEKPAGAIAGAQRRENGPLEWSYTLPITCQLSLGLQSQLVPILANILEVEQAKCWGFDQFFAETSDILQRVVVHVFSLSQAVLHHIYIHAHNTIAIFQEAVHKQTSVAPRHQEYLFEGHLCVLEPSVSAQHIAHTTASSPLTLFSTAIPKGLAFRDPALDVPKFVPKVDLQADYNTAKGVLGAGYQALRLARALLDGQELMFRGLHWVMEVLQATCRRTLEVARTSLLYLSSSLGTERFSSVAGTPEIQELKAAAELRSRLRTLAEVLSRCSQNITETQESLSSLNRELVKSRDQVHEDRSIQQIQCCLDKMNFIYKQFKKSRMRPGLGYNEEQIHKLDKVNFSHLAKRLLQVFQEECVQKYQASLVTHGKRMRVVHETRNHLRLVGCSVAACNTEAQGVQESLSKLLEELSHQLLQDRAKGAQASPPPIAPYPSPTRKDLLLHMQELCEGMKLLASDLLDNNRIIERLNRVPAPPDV

Set 1
Compound: CN([C@@H]1CCc2c(CC(=O)O)c3ccccc3n2C1)S(=O)(=O)c1ccc(F)cc1
Method: competition with immobilised ligand
Tested at: 1 µM
Measurement: remaining binding
STK38L (Homo sapiens, UniProt Q9Y2H1); cell-free assay: 83%
DDR2 (Homo sapiens, UniProt Q16832); cell-free assay: 98%
Cyclin-dependent kinase 4, with cyclin D3 (CDK4, Homo sapiens, UniProt P11802); cell-free assay: 100%
PDGFRB (Homo sapiens, UniProt P09619); cell-free assay: 97%
WNK4 (Homo sapiens, UniProt Q96J92); cell-free assay: 100%
IKBKE (Homo sapiens, UniProt Q14164); cell-free assay: 84%
ABL2 (Homo sapiens, UniProt P42684); cell-free assay: 100%
PAK1 (Homo sapiens, UniProt Q13153); cell-free assay: 96%
FER (Homo sapiens, UniProt P16591); cell-free assay: 100%
Myosin-IIIa (MYO3A, Homo sapiens, UniProt Q8NEV4); binding: 100%
FLT3 (Homo sapiens, UniProt P36888); cell-free assay: 100%
RET (Homo sapiens, UniProt P07949, M918T); cell-free assay: 97%

Set 2
Target: Discoidin domain-containing receptor 2 (DDR2, Homo sapiens, UniProt Q16832)
Observed: enzyme activity
Mode: inhibitor
Tested at: 0.5 µM
Relative to: control
Measurement: remaining activity
COc1ccc(CNC(=O)Nc2ncc([N+](=O)[O-])s2)cc1: 100%
Cn1c2ccccc2c2c3c(c4c5ccccc5n(CCC#N)c4c21)CNC3=O: 73.3%
C#Cc1cccc(Nc2ncnc3cc(OCCOC)c(OCCOC)cc23)c1: 121%
Nc1[nH]nc2nc3ccccc3nc12: 94.6%
O=S(=O)(c1cccc2cnccc12)N1CCCNCC1: 92.2%
O=c1c2ccccc2[nH]c(=S)n1CCN1CCC(=C(c2ccc(F)cc2)c2ccc(F)cc2)CC1: 97.6%
OCC(O)CCON=C1C(c2c(O)[nH]c3ccccc23)=Nc2ccccc21 (centres unmarked): 86.1%
COc1ccc(OC)c2c(=S)c3ccccc3[nH]c12: 97.1%
CNC(=O)c1cc(Oc2ccc(NC(=O)Nc3ccc(Cl)c(C(F)(F)F)c3)cc2)ccn1: 3.41%
CO[C@H]1C[C@@H]2CC[C@@H](C)[C@@](O)(O2)C(=O)C(=O)N2CCCC[C@H]2C(=O)O[C@H]([C@H](C)C[C@@H]2CC[C@@H](O)[C@H](OC)C2)CC(=O)[C@H](C)/C=C(\C)[C@@H](O)[C@@H](OC)C(=O)[C@H](C)C[C@H](C)/C=C/C=C/C=C/1C: 95.6%
COc1ccc(C(=O)Nc2sc3c(c2C(N)=O)CCCC3)cc1OC: 102%
COc1cc2nccc(Oc3ccc(NC(=S)NC(=O)c4ccccc4C)cc3)c2cc1OC: 54.1%
O=C(O)c1ccc2c3c1cccc3c(=O)n1c3ccccc3nc21: 96.8%

Set 3
Target: Centromere-binding protein 1, full length, N-terminal tag (CBF1, Saccharomyces cerevisiae, UniProt P17106, residues 1-351)
Chain of UniProt P17106 (whole entry, looked up): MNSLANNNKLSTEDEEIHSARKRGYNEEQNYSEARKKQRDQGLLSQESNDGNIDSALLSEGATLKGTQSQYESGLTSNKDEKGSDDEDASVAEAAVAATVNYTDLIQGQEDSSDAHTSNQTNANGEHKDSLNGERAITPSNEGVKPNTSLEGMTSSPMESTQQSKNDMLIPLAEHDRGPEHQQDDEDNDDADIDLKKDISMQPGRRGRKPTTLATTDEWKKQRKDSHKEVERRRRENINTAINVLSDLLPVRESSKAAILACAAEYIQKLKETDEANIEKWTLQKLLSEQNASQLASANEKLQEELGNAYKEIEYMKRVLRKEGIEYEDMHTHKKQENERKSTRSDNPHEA
Method: protein-binding microarray
Form: double-stranded DNA, one strand shown
Sample: in vitro
Tested at: 0.8 µM
Setting: whole 60-bp probe, no competitor
Direction: higher = stronger binding
Measurement: fluorescence intensity
CTAAAGATTTACTCTCCCGTGATGCCGGGCCAATTCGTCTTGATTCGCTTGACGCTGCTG: 819 a.u.
CTACAACAGCACCACCACCAATGCATTTTGGCCTTCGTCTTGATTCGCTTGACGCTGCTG: 495 a.u.
GAATCATCGGTGGCAAACGTGTTTACAGGACTATAGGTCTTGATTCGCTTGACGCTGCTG: 509 a.u.
GAAATTCATTATATAGCCGTGATGTATATTCCGTAGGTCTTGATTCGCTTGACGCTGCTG: 600 a.u.
GAAAGATTTCATTTTCACGAGGATCGATTTCTATAGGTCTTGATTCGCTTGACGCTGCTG: 618 a.u.
CTAAAGGACCGTTCCGACGTGCGCCTTCCTGATTTCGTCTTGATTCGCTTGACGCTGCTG: 489 a.u.
CTAACTACGCATTATCACGTAGGCATATATATGTTCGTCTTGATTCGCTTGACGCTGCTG: 583 a.u.
GAAGCATTGAATCGCCACATGTCTATAATCTTATAGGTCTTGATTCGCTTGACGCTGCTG: 735 a.u.

Set 4
Target: Prothrombin, mature alpha-thrombin (F2, Homo sapiens, UniProt P00734)
Method: aptamer microarray, sandwich
Form: DNA with 2'F-ANA
Sample: in vitro
Tested at: 200 nM
Setting: whole 15-mer aptamer, many near background
With: Cy3 exosite-II aptamer, 400 nM
Direction: higher = stronger binding
Measurement: mean fluorescence intensity
Sequence: GGTTGGTGTGGTTGG
2'F-ANA at 1 6 8 10 15: 59.8 a.u.
2'F-ANA at 2 4 5 7 9 11 12 14: 45.5 a.u.
2'F-ANA at 4 5 6 10 12 13 14 15: 48 a.u.
2'F-ANA at 3 4 5 6 7 8 9 10 11 13 14 15: 169 a.u.
2'F-ANA at 1 2 3 4 8 9 10: 61.6 a.u.
2'F-ANA at 1 4 6 11 12 14: 53.2 a.u.
2'F-ANA at 2 4 6 8 11 12: 489 a.u.
2'F-ANA at 2 3 4 5 6 9 12 15: 152 a.u.
